Experimental data gathered from unrelated publications.
Lines come from different studies, so protocols differ. Numbers after ± are the reported error.

CC[C@H]1[C@@H](O)[C@@H]2[C@H](CC[C@]3(C)[C@@H]([C@H](C)CCOS(=O)(=O)[O-])CC[C@@H]23)[C@@]2(C)CC[C@@H](O)C[C@@H]12.[Na+] — fibrosis area (digital image analysis; ob/ob NASH mouse model, liver; oral, 3 mg/kg once daily, 8 weeks; reference: area): 13.6 ± 0.8%
CC(C)CCC[C@@H](C)[C@H]1CCC([C@@H]2CC[C@H]3C[C@H](O)CC[C@]3(C)[C@H]2O)[C@]1(C)CC(=O)O (stereo partly drawn) — Tgr5 mRNA level (C57BL/6J male mice, antibiotic-treated, ileum; oral gavage, 10 mg/kg, together with: taurocholic acid 400 mg/kg): no effect
CCCCCCCOC(=O)Cc1c(C)n(C(=O)c2ccc(Cl)cc2)c2ccc(OC)cc12 — writhing count (BALB/c mice, acetic acid writhing; intraperitoneal, 20 mg/kg, 20 min count): 13.7 ± 1.67
Cc1sc(-c2ccc(C(F)(F)F)cc2)nc1-c1nn[nH]c1C#N — HbA1c reduction (male ZDF rat; oral, 4 mg/kg/day, 1008 h; reference: vehicle): 0.53 percentage points
O=c1c(OCc2ccccc2)c(-c2ccc(Cl)cc2)oc2ccccc12 — serum LDL cholesterol (diabetic rat; 7.5 mg/kg, 28 days, p-nitrophenyl β-glucoside induced): 118 ± 3.85 mg/dL
CC12CC(O)C3CC1(OC1OC(CO)C(O)C(O)C1O)C3(COC(=O)c1ccccc1)C(=O)O2 (stereo not drawn) — immobility time (tail suspension test; pseudo-germ-free mice, reserpine model; 14 mg/kg, 7 days): 140 ± 15.6 s
O=c1c(OCc2ccccc2)c(-c2ccc([N+](=O)[O-])cc2)oc2ccccc12 — serum total cholesterol (diabetic rat; 5 mg/kg, 28 days, p-nitrophenyl β-glucoside induced): 160 ± 4.91 mg/dL
Cc1ccc(C(=O)Nc2ccc(CP(=O)(O)O)cc2CP(=O)(O)O)cc1NC(=O)c1cccc(NC(=O)Nc2cccc(C(=O)Nc3cc(C(=O)Nc4ccc(CP(=O)(O)O)cc4CP(=O)(O)O)ccc3C)c2)c1 — APTT (human plasma; 282 µM): 45.4 ± 7.2 s
COc1ccc(C2CC(c3ccc(C)cc3)=Nc3ccccc3S2)cc1 (stereo not drawn) — blood glucose (rat, normal, overnight fasted; oral, 20 mg/kg, 90 min, oral glucose tolerance test, together with: glucose 3 g/kg oral): 109 ± 4.21 mg/dL
COc1ccc2c(c1)c(CC(=O)OCOC(C)=O)c(C)n2C(=O)c1ccc(Cl)cc1 — writhing count (BALB/c mice, acetic acid writhing; intraperitoneal, 30 mg/kg, 20 min count): 5.17 ± 1.33
COc1ccc(C(=O)CSc2nnc(COCCn3c([N+](=O)[O-])cnc3C)o2)cc1F — DPPH scavenging (75 µg/mL, 45 min): 67.76 ± 0.29%
CCCC[C@H](NC(=O)[C@@H](NC(=O)[C@H](CC(=O)O)NC(=O)[C@H](CCC(N)=O)NC(=O)[C@H](CC(C)C)NC(=O)[C@H](CC(C)C)NC(=O)[C@H](CCCN)NC(=O)[C@H](CCCNC(=N)N)NC(=O)[C@H](C)NC(=O)[C@H](CO)NC(=O)[C@H](CC(C)C)NC(=O)[C@H](CCC(N)=O)NC(=O)[C@H](CC)NC(=O)[C@H](CC(C)C)NC(=O)[C@@H](NC(=O)[C@H](CCCN)NC(=O)[C@H](CCCNC(=N)N)NC(=O)[C@H](Cc1ccc(O)cc1)NC(=O)[C@H](CO)NC(=O)[C@H](CCC(N)=O)NC(=O)[C@@H](NC(=O)[C@H](Cc1c(F)c(F)c(F)c(F)c1F)NC(=O)[C@@H](NC(=O)[C@H](C)NC(=O)[C@H](CC(=O)O)NC(=O)[C@@H](C)NC(=O)[C@H](Cc1ccc(O)cc1)NC)[C@@H](C)CC)[C@@H](C)O)C(C)C)[C@@H](C)CC)C(=O)N[C@@H](CC(=O)O)C(=O)N[C@@H](CCCNC(=N)N)C(=O)NC — serum GH level (GH release, ELISA; male Sprague-Dawley rat, anaesthetised, serum; subcutaneous, 3 µg/kg, 0 min): 29.5 ± 3.2 ng/mL
CC[C@H](C)[C@H](NC(=O)[C@H](CC(N)=O)NC(=O)[C@H](CC(N)=O)NC(=O)[C@H](CCCNC(=N)N)NC(=O)[C@H](CC(N)=O)NC(=O)[C@H](CCCNC(=N)N)NC(=O)[C@H](CCCCN)NC(=O)[C@@H](NC(=O)[C@H](CC(N)=O)NC(=O)[C@H](CCSC)NC(=O)[C@H](CC(C)C)NC(=O)[C@H](Cc1c[nH]c2ccccc12)NC(=O)[C@H](CCC(N)=O)NC(=O)[C@@H](NC(=O)[C@H](Cc1ccccc1)NC(=O)[C@H](CC(=O)O)NC(=O)[C@H](CCC(N)=O)NC(=O)[C@H](C)NC(=O)[C@H](CCCNC(=N)N)NC(=O)[C@H](CCCNC(=N)N)NC(=O)[C@H](CO)NC(=O)[C@H](CC(=O)O)NC(=O)[C@H](CC(C)C)NC(=O)[C@H](Cc1ccc(O)cc1)NC(=O)[C@H](CCCCN)NC(=O)[C@H](CO)NC(=O)[C@H](Cc1ccc(O)cc1)NC(=O)[C@H](CC(=O)O)NC(=O)[C@H](CO)NC(=O)[C@@H](NC(=O)[C@H](Cc1ccccc1)NC(=O)[C@@H](NC(=O)CNC(=O)[C@H](CCC(=O)O)NC(=O)[C@@H](CO)NC(=O)[C@@H](N)Cc1c[nH]cn1)[C@@H](C)O)[C@@H](C)O)C(C)C)[C@@H](C)O)C(=O)N[C@@H](C)C(=O)N[C@@H](CSCC(=O)NCCOCCOCCOCCOCCC(=O)O[C@H]1CC[C@@]2(C)C(=CC[C@H]3[C@@H]4CC[C@H]([C@H](C)CCCC(C)C)[C@@]4(C)CC[C@@H]32)C1)C(N)=O — leptin level (diet-induced obese mice, plasma; subcutaneous, 1.9 µmol/kg, 14 days, chronic dosing): 19 ± 1 ng/mL
CCCC[C@H](NC(=O)[C@@H](NC(=O)[C@H](CC(=O)O)NC(=O)[C@H](CCC(N)=O)NC(=O)[C@H](CC(C)C)NC(=O)[C@H](CC(C)C)NC(=O)[C@H](CCCN)NC(=O)[C@H](CCCNC(=N)N)NC(=O)[C@H](C)NC(=O)[C@H](CO)NC(=O)[C@H](CC(C)C)NC(=O)[C@H](CCC(N)=O)NC(=O)[C@H](CC)NC(=O)[C@H](CC(C)C)NC(=O)[C@@H](NC(=O)[C@H](CCCN)NC(=O)[C@H](CCCNC(=N)N)NC(=O)[C@H](Cc1ccc(O)cc1)NC(=O)[C@H](CO)NC(=O)[C@H](CCC(N)=O)NC(=O)[C@@H](NC(=O)[C@H](Cc1ccccc1)NC(=O)[C@@H](NC(=O)[C@H](C)NC(=O)[C@H](CC(=O)O)NC(=O)[C@@H](C)NC(=O)[C@H](Cc1ccc(O)cc1)NC)[C@@H](C)CC)[C@@H](C)O)C(C)C)[C@@H](C)CC)C(=O)N[C@@H](CC(=O)O)C(=O)N[C@@H](CCCNC(=N)N)C(=O)NC — serum GH level (GH release, ELISA; male rat, anaesthetised, serum; intravenous, 1 µg/kg, 0 min): 47.7 ± 4.1 ng/mL
Cc1ccc(-c2oc3ccccc3c(=O)c2OCc2ccccc2)cc1 — serum LDL cholesterol (diabetic rat; 5 mg/kg, 28 days, p-nitrophenyl β-glucoside induced): 129 ± 3.41 mg/dL
COc1ccc2c(c1)c(CC(=O)OCC(=O)c1ccccc1)c(C)n2C(=O)c1ccc(Cl)cc1 — writhing count (BALB/c mice, acetic acid writhing; intraperitoneal, 20 mg/kg, 20 min count): 10.8 ± 1.68
C=C(c1ccc(C(=O)O)c(F)c1)c1cc2c(cc1C)C(C)(C)C=CC2(C)C — log2 fold change (RNA sequencing, measured: Rbp1; rat, brain; dose not given, 24 h; reference: vehicle): -0.63
COc1ccc(-c2oc3ccccc3c(=O)c2OCc2ccccc2)cc1 — serum alanine aminotransferase (diabetic rat; 7.5 mg/kg, p-nitrophenyl β-glucoside induced): 33.4 ± 2.5 IU
O=C(C=Cc1ccc(O)c(O)c1)OC1CC(O)(C(=O)O)CC(O)C1O (stereo not drawn) — creatine kinase activity (decreased; Kunming mice, isoprenaline-induced myocardial infarction, serum; intravenous, 30 mg/kg daily for 7 days, day 7; reference: model group): decreased
CCCC[C@H](NC(=O)[C@@H](NC(=O)[C@H](CC(=O)O)NC(=O)[C@H](CCC(N)=O)NC(=O)[C@H](CC(C)C)NC(=O)[C@H](CC(C)C)NC(=O)[C@H](CCCN)NC(=O)[C@H](CCCNC(=N)N)NC(=O)[C@H](C)NC(=O)[C@H](CO)NC(=O)[C@H](CC(C)C)NC(=O)[C@H](CCC(N)=O)NC(=O)[C@H](CC)NC(=O)[C@H](CC(C)C)NC(=O)[C@@H](NC(=O)[C@H](CCCN)NC(=O)[C@H](CCCNC(=N)N)NC(=O)[C@H](Cc1ccc(O)cc1)NC(=O)[C@H](CO)NC(=O)[C@H](CCC(N)=O)NC(=O)[C@@H](NC(=O)[C@H](Cc1ccccc1)NC(=O)[C@@H](NC(=O)[C@H](C)NC(=O)[C@H](CC(=O)O)NC(=O)[C@@H](C)NC(=O)[C@H](Cc1ccc(O)cc1)N(C)C(C)=O)[C@@H](C)CC)[C@@H](C)O)C(C)C)[C@@H](C)CC)C(=O)N[C@@H](CC(=O)O)C(=O)NCCCCNC(=N)N — serum GH level (GH release, ELISA; male Sprague-Dawley rat, anaesthetised, serum; subcutaneous, 3 µg/kg, 0 min): 30.6 ± 7.2 ng/mL
Cc1csc(NC(=O)CN2CCC(O)CC2)n1 — DPPH radical scavenging (0.1 mM, 1 h): 17.3%

Repeated from above:
Cc1ccc(-c2oc3ccccc3c(=O)c2OCc2ccccc2)cc1 — serum LDL cholesterol (diabetic rat; 5 mg/kg, 28 days, p-nitrophenyl β-glucoside induced): 129 ± 3.41 mg/dL
